Results gathered from unrelated publications.
Target: TGF-beta receptor type-2 (TGFBR2, Homo sapiens, UniProt P37173)

| SMILES | test | test system | setting | how to read | measurement | value |
| --- | --- | --- | --- | --- | --- | --- |
| CCN1CCN(Cc2ccc(C(=O)Nc3ccc(C)c(NCc4cnc5[nH]ccc5c4OC)c3)cc2C(F)(F)F)CC1 | binding, competition with immobilised ligand |  | 1 µM |  | remaining binding | 94% |
| CNC1C[S+]2CC[S+]3CC[S+](C1)[Ru-4]321([N]=C=S)[n]2c3ccc(OC)cc3c3c4c(c5cc(F)c[n+]1c5c32)C(=O)NC4=O (stereo not shown) | KinomeScan |  | 0.1 µM | relative to: untreated | remaining binding | 99% |
| NC(=O)[C@@H](O)C[C@H]1CCc2sc3ncnc(O[C@H]4CC[C@H](N5CCOCC5)CC4)c3c21 | enzyme activity, inhibitor |  | 10 µM |  | inhibition | -7% |
| CCN1CCN(Cc2ccc(NC(=O)c3ccc(C)c(NC(=O)c4cncc(-c5cccs5)c4)c3)cc2C(F)(F)F)CC1 | binding, competition with immobilised ligand |  | 1 µM |  | remaining binding | 25% |
| O=C(Cc1ccc(OCc2ccccc2)cc1)NC1(C(=O)O)CCN(C(=O)c2ccc(-c3cccc(Cl)c3)cc2)CC1 | enzyme activity, inhibitor |  | 10 µM |  | activity vs control | 108% |
| Cc1ccc(C(=O)Nc2ccc(CN3CCN(C)CC3)c(C(F)(F)F)c2)cc1C#Cc1cnc2cccnn12 | target engagement, NanoBRET | human cells |  |  | upper asymptote | 19.9 |
| C=CC(=O)N1CCc2ccc(-n3c(=O)ccc4cnc5ccc(-c6cnn(C)c6)cc5c43)cc21 | KINOMEscan |  | 1 µM | relative to: DMSO control | remaining binding | 100% |
| CNC(=O)C[C@H](Cc1ccc(C#N)cc1)NC(=O)c1cc(-c2ccc(CN[C@H](C)c3ccc(C)cc3)o2)ccc1Cl | enzyme activity, inhibitor |  | 1 µM |  | activity vs control | 96% |
| C=CC(=O)N1CCCC(n2c(=O)c3ncccc3n(Cc3ccc(Oc4ccccc4)cc3)c2=O)C1 (stereo not shown) | cell-free assay, competition with immobilised ligand |  | 1 µM |  | remaining binding | 97% |
| COc1cc(Nc2nccc(-c3cnn4nc(OC)ccc34)n2)cc(C(F)(F)F)c1 | binding, competition with immobilised ligand |  | 1 µM |  | remaining binding | 60% |
| COc1ccc(O)cc1-c1c[nH]c2ncc(-c3cncc(C(=O)N(C)C)c3)cc12 | binding, competition with immobilised ligand |  | 0.2 µM |  | inhibition | 1.5% |
| COc1c(Cl)cccc1Nc1c(-c2ccncc2C#C[C@@]2(C)CCCN2C(=O)/C=C/CN(C)C)[nH]c2c1C(=O)NCC2 | cell-free assay, competition with immobilised ligand |  | 3 µM |  | remaining binding | 98% |
| Cc1cnc2nc1Nc1cccc(c1)COC/C=C/COCc1cc(ccc1OCCN1CCOCC1)N2 | binding, competition with immobilised ligand |  | 0.1 µM |  | remaining binding | 100% |

For quick reference, copied from above:
| SMILES | test | test system | setting | how to read | measurement | value |
| --- | --- | --- | --- | --- | --- | --- |
| COc1c(Cl)cccc1Nc1c(-c2ccncc2C#C[C@@]2(C)CCCN2C(=O)/C=C/CN(C)C)[nH]c2c1C(=O)NCC2 | cell-free assay, competition with immobilised ligand |  | 3 µM |  | remaining binding | 98% |
| NC(=O)[C@@H](O)C[C@H]1CCc2sc3ncnc(O[C@H]4CC[C@H](N5CCOCC5)CC4)c3c21 | enzyme activity, inhibitor |  | 10 µM |  | inhibition | -7% |
